Results from different studies.
Protocols differ between the studies behind these lines. ± marks the error that the study gave.

SMILES = CCCCOC(=O)N1CCN(C(=O)[C@H](CP(=O)(O)O)NC(=O)c2cc(N3CC[C@H](OC)C3)nc(-c3ccccc3)n2)CC1; test system = healthy human, plasma; setting = subcutaneous, 4 mg, added: rifampin 600 mg i.v.; scale = geometric mean; Cmax = 210 ng/mL
SMILES = Cc1[nH]c(/C=C2\C(=O)Nc3ccccc32)c(C)c1CCC(=O)O; test system = human patients; setting = oral, 200 mg/m^2 twice daily, after meal, dose 55; Cmax = 6460 ± 1910 ng/mL
SMILES = O=C(c1cccnc1-c1ccncc1)N1CCC(O)(Cc2ccccc2)CC1; test system = healthy human, plasma; setting = oral, 400 mg once daily, day 14, arithmetic mean; Cmax = 2930 ng/mL
SMILES = C=CC(=O)N1CCC(CNc2ncnc(N)c2-c2ccc(Oc3ccccc3)cc2)CC1; test system = human, plasma; setting = 500 mg, single dose, geometric mean; Cmax = 1510 ng/mL
SMILES = CNCc1ccc(-c2[nH]c3cc(F)cc4c3c2CCNC4=O)cc1; test system = human patients, plasma; setting = oral, 500 mg once daily, day 1, single dose, arithmetic mean; Cmax = 949 ng/mL
SMILES = NS(=O)(=O)OC[C@@H]1C[C@@H](n2ccc3c(N[C@H]4CCc5ccccc54)ncnc32)C[C@@H]1O; test system = human; setting = intravenous, 15 mg/m^2 single dose, day 1; Cmax = 121 ng/mL
SMILES = CC(C)NC[C@@H](C(=O)N1CCN(c2ncnc3c2[C@H](C)C[C@H]3O)CC1)c1ccc(Cl)cc1; test system = human, matched normal hepatic function (Child-Pugh), plasma; setting = oral, 100 mg single, reference geometric mean, vs Moderate; Cmax = 48.4 ng/mL
SMILES = O=C(NCc1ccncc1)C12CC3CC(C1)CC(c1ccc(Cl)cc1)(C3)C2; test system = human patients, plasma; setting = oral, 500 mg, day 1 and day 28 combined; Cmax = 5160 ± 4290 ng/mL
SMILES = COC(=O)N[C@@H](C)CNc1nccc(-c2cn(C(C)C)nc2-c2cc(Cl)cc(NS(C)(=O)=O)c2F)n1; test system = human, plasma; setting = oral, 450 mg QD, day 1, geometric mean, added: binimetinib 45 mg BID; Cmax = 6060 ng/mL
SMILES = CC(C)(Sc1ccncc1-c1ccc(C#N)c2ccccc12)C(=O)O; test system = human, plasma; setting = oral, 10 mg, added: febuxostat 40 mg; Cmax = 15.5 ng/mL
SMILES = N[C@]1(C(=O)O)[C@H]2[C@@H](C[C@@H]1F)[C@@H]2C(=O)O; test system = human, fed, plasma; setting = oral, 10 mg multiple, day 14; Cmax = 37.7 ng/mL
SMILES = COc1c(OCCCN2CCOCC2)ccc2c1N=C(NC(=O)c1cnc(N)nc1)N1CCN=C21; test system = human cancer patients, plasma; setting = intravenous, 0.6 mg/kg weekly, cycle 1 day 15, geometric mean, added: refametinib 30 mg twice daily; Cmax = 194 ng/mL
SMILES = NC1(C(=O)N[C@@H](CCO)c2ccc(Cl)cc2)CCN(c2ncnc3[nH]ccc23)CC1; test system = human, plasma; setting = 400 mg twice daily, day 8, geometric mean; Cmax = 1220 ng/mL
SMILES = CN1C(=O)[C@@H](NC(=O)c2nnc(Cc3ccccc3)[nH]2)COc2ccccc21; test system = human male, plasma; setting = oral, 60 mg twice daily, day 1; Cmax = 1090 ng/mL
SMILES = Cc1cc(C)c2c(c1)[C@@H](N(Cc1cc(C(F)(F)F)cc(C(F)(F)F)c1)c1nnn(C)n1)CCCN2C[C@H]1CC[C@H](C(=O)O)CC1; test system = human, plasma; setting = oral, 10 mg once daily, steady state, geometric mean; Cmax = 41.6 ng/mL
SMILES = Nc1ncc(-c2cnn(CCO)c2)c2scc(-c3ccc(NC(=O)Nc4cccc(F)c4)cc3)c12; test system = human patients, plasma; setting = oral, 690 mg once weekly, first dose; Cmax = 839 ng/mL
SMILES = COc1cc2ncnc(Nc3ccc(F)c(Cl)c3)c2cc1OCCCN1CCOCC1; test system = human, plasma; setting = oral, 250 mg, added: vorinostat 200 mg; Cmax = 344 ± 44 ng/mL
SMILES = CN1CC[C@H](c2c(O)cc(O)c3c(=O)cc(-c4ccccc4Cl)oc23)[C@H](O)C1; test system = human patients, phase I, plasma; setting = intravenous, 60 mg/m^2, cycle 1, mean, added: doxorubicin 60; Cmax = 3.29 µM

A few entries again:
SMILES = CN1C(=O)[C@@H](NC(=O)c2nnc(Cc3ccccc3)[nH]2)COc2ccccc21; test system = human male, plasma; setting = oral, 60 mg twice daily, day 1; Cmax = 1090 ng/mL
SMILES = Cc1cc(C)c2c(c1)[C@@H](N(Cc1cc(C(F)(F)F)cc(C(F)(F)F)c1)c1nnn(C)n1)CCCN2C[C@H]1CC[C@H](C(=O)O)CC1; test system = human, plasma; setting = oral, 10 mg once daily, steady state, geometric mean; Cmax = 41.6 ng/mL
